Experimental data gathered from unrelated publications.
Each line is one published result; not all experiments were run side by side. Several values in a cell are separate wells, animals, samples, runs or records. ± gives the spread as reported.
Method: steady-state kinetics
B1: SCO6712 S292F/Y229F (Streptomyces coelicolor, UniProt Q9XAL8); chain AKGITARTAPAGGEVRHLKMYAEKLADGQMGYGFEKGKASVPGPLIEVNEGDTLHIEFTNTMDVRASLHVHGLDYEISSDGTAMNKSDVEPGGTRTYTWRTHKPGRRDDGTWRPGSAGYWHYHDHVVGTEHGTGGIRNGLYGPVIVRRKGDVLPDATHTIVFNDMTINNRKPHTGPDFEATVGDRVEIVMITHGEFYHTFHMHGHRWADNRTGILTGPDDPSRVIDNKITGPADSFGFQIIAGEGVGAGAWMYHCHVQFHSDMGMVGLFLVKKPDGTIPGYEPHEHGGATAKSGESGEPTGGAAAHEHEH
B2: enzyme L71Q/Y136L (Bradyrhizobium diazoefficiens, UniProt Q45222); chain MIQTERAVQQVLEWGRSLTGFADEHAVEAVRGGQYILQRIHPSLRGTSARTGRDPQDETLIVTFYRELALQFWLDDCNDLGLISPEQLAAVEQALGQGVPCALPGFEGCAVLRASLATLAYDRRDYAQLLDDTRCLSAALRAGHAQAVAAERWSYAEYLHNGIDSIAYANVFCCLSLLWGLDMATLRARPAFRQVLRLISAIGRLQNDLHGCDKDRSAGEADNAVILLLQRYPAMPVVEFLNDELAGHTRMLHRVMAEERFPAPWGPLIEAMAAIRVQYYRTSTSRYRSDAVRGGQRAPA
B3: enzyme (Acinetobacter baumannii, UniProt A0A5P1UDB1); chain MFIEQDIQLGYVPFPKSRAQQYRDEGCWKSQTHFQLLASLKDRFAQRVAVIQDDKQLTYQQLYDYAIHYGTYLKQQGIRETDFVLLQSPNVIEVFIVIFGLYAIGARPVFCLHGHGSYEIENIARQSRAVGFLKLCGSANESTATDVCEEFSKPNFKLWFRESIVSRSSIEASLPQLQGVAPAFNLRAQSESEDIAFLQLSGGTTGLPKLIPRTHADYIYSIEKSVDVAGLTQDTKQLVVLPVMHNFCMSSPGFLGVFYVGGTVVLSQLTHPRVCFELIEKYQIQQVSLVPAIATLWLNAESLKDYDLSSLQVVQVGGAKLLPSLAEQIIDTLQVKLQQVYGMAEGLVNFTHLDDSDQITIQTQGKKLSHLDEIRIADQDGNALPINAIGHIQTRGPYTINGYYNLPEINQRAFTQDGFYKTGDIGYLDENLNIVVTGREKEQINRSGEKITPSEIEEFILQYPSVKDVCVIGVSDDYLGERIKAIIIPKLDDSEINLKNIRKFLISKNIAHFKIPDEIEVVADFKYTHVGKVNRQKLG
B4: enzyme S252E (Schizosaccharomyces pombe, UniProt P78804); chain MSTPYEPEFQQAYKEIVGSIESSKLFEVHPELKRVLPIISIPERVLEFRVTWEDDKGNCRVNTGYRVQFNSALGPYKGGLRFHPSVNLSILKFLGFEQIFKNALTGLPMGGGKGGSDFDPKGKSDNEIRRFSQAFMRQLFRYIGPQTDVPAGDIGVTGFVVMHMFGEYKRLRNEYSGVVTGKHMLTGGSNIRPEATGYGVVYYVKHMIEHRTKGAETLKGKRVAISGSGNVAQYAALKCIQEGAIVKSISDEKGVLIAKTAEGLVPEEIHEIMALKEKRASIADSASLCKKHHYIAGARPWTNVGEIDIALPCATQNEVSGEEAAALIKQGCRYVAEGSNMGSSAEAVEVFEKSRASGEGCWLAPGKAANAGGVAVSGLEMAQNAQFSTWTHAEVDAKLAGIMQNIFEQSTDVASKYCDSGSNNIPSLVDGANIAGFLKVATAMQAVGDWW
B5: enzyme (Methylibium petroleiphilum, UniProt A2SL37); chain PIIQMNLLEGRTVEQKRNAVAAITEAVVRTLDVRPDQVRILINELGVEHFSVAGQTAAMRQAAAANAKDL
B6: enzyme C424A (Methanosarcina mazei, UniProt Q8PVB1); chain MSEQRSVPLREHLLALKPCRHGGLIQETSETYGIPENEILDFSANFNPLGSPFDYPENGLNFEDIIKKSCGKLLEYPDNRYVEFREAAARFVGLGVTPQSIVPGNGSTEIVRLVVESVIEKGDKVLLPWPTFGEYEMQCRITGAEPVCPSQEEVNTLPDEVLEEAKILFICNPNNPTGKLRTREELKVLAERCREHKTLLYVDEAFIELSDPSQSVADLPAENNYVFVMRSLTKDFAIPGIRMGFGIAPPAMADILNTARLSWNLGAIANNTGIALLNIEGGIDSPYLKKAREMILKEGETLKAKIDRIRGFEAGEVNVNFILVDVSKFMLNSSELTARLAARGVLVRDCVSFHGLGKNYIRVAVRTEKENDRLIAAIGDVITEWGREQAKNELQHVIEKASEEGIGGRKTCEYYPCHFEGQNATFCFCPFYPCENEKTGGKWIQSSRGGRVWSCVDCHLVHKKEIAQKILDCLMHEGDTDELVKVAWKEVMEPIL
B7: acsA (Pseudomonas chlororaphis, UniProt Q5CD72); chain MRDYEHVVESFDYLQSATQDLHGELTALNACVECCDRHAHGEAVALYCEAQDGHAERYRFRDLQRQAARFGNFLREQGVKPGDRVAGLMPRTVELLIAILGTWRIGAVYQPLFTAFGPKAIEQRLNCSNARWIVTDPHNRPKLDDVTDCPSIVVTGGAPQNPADHHFWSALNRQADDCAPVLLDASAPFLLMCTSGTTGPAKPLEVPLSAILAFKGYMRDAIDLRADDRFWNLADPGWAYGLYYAVTGPLACGYATLFYDGPFTVESTRHIIAKYAINNLAGSPTAYRFLIAAGAEFADAVRGRLRAVSSAGEPLNPQVVRWFAEQLGVVIHDHYGQTEIGMVLCNHHGLRHPVREGSAGYAVPGYRIVVLDKAHRELPAGQPGVLAVDRERSPLCWFDGYLGMPTQAFAGRYYLSGDIVELNDDGSISFVGRNDDLITTSGYRVGPFDVESALIEHPAVVEAAVIGKPDPQRTELIKAFVVLNTPYLPSPELAEELRLHVRQRLAAHAYPREMEFVDHLPKTPSGKLQRFILRNQEIAKQQALG
B8: enzyme (Thermotoga maritima, UniProt Q9WXS3); chain MRLNRETIKDRAAWEKIGVRPPYFDLDEVEKNTKEQPKWVHFGGGNIFRGFVAAVLQNLLEEGKEDTGINVIELFDYEVIDKVYKPYDNLSIAVTIKPDGDFEKRIIASVMEALKGDPSHPDWERAKEIFRNPSLQLASLTITEKGYNIEDQAGNLFPQVMEDMKNGPVSPQTSMGKVAALLYERFKAGRLPIALLSLDNFSRNGEKLYSSVKRISEEWVKSGLVEKDFIDYLEKDVAFPWSMIDKIVPGPSEFIKEHLEKLGIEGMEIFVTSKRTHIAPFVNMEWAQYLVIEDSFPNGRPKLEGADRNVFLTDRETVEKAERMKVTTCLNPLHTALAIFGCLLGYKKIADEMKDPLLKKLVEGVGEEGIKVVVDPGIINPREFLNEVINIRLPNPYLPDTPQRIATDTSQKMPIRFGETIKAYHERPDLDPRNLKYIPLVIAGWCRYLMGIDDEGREMQLSPDPLLENLRSYVSKIKFGDPESTDDHLKPILSSQQLFRVNLYEVGLGEKIEELFKKMITGPRAVRKTLEEVVGREDG
B9: nfsB (Escherichia coli, UniProt P38489); chain MDIISVALKRHSTKAFDASKKLTPEQAEQIKTLLQYSPSSTNSQPWHFIVASTEEGKARVAKSAAGNYVFNERKMLDASHVVVFCAKTAMDDVWLKLVVDQEDADGRFATPEAKAANDKGRKFFADMHRKDLHDDAEWMAKQVYLNVGNFLLGVAALGLDAVPIEGFDAAILDAEFGLKEKGYTSLVVVPVGHHSVEDFNATLPKSRLPQNITLTEV
B10: enzyme I20A (Nitrosopumilus maritimus, UniProt A9A5X4); chain MDSQKFDSIIFDCDGVLVDATQSYDKTIDKTCRYVLKEFAKIDSITIDHKIIDGFKSSGGFNDEVDLVYAAILSLYTANKLNKKPSEFIYDVISNTDKTGIRSVQSYLESIYDVSEFLSKLGSLGDRHNNPVYSIFDQFFFGPELYGKLFDKQSKFSEEGMISNDKVILSVSLLETLQKEFGKKIAVVTGRGIESIRYSLKDMMDYFDTKNSAFLEDEPRELAKPNPATLIRAIQSMESKNCLYVGDSMEDYMMAKDAAQAGHSTTFCAIVGTSTNPEDRRKLFADSGVEMILESINDIPKVLNLV
UniProt Q9C969, sequence (whole entry, looked up): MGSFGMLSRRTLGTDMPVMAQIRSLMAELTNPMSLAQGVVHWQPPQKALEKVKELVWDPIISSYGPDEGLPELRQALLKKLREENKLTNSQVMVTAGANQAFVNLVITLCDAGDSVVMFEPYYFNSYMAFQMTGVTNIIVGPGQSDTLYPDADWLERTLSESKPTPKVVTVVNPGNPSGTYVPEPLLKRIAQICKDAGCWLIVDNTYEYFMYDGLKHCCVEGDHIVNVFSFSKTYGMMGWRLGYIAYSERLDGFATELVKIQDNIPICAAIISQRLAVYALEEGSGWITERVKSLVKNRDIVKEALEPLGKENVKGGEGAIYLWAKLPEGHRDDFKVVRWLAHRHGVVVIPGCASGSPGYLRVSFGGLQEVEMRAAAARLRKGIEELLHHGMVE
UniProt P49419, sequence (whole entry, looked up): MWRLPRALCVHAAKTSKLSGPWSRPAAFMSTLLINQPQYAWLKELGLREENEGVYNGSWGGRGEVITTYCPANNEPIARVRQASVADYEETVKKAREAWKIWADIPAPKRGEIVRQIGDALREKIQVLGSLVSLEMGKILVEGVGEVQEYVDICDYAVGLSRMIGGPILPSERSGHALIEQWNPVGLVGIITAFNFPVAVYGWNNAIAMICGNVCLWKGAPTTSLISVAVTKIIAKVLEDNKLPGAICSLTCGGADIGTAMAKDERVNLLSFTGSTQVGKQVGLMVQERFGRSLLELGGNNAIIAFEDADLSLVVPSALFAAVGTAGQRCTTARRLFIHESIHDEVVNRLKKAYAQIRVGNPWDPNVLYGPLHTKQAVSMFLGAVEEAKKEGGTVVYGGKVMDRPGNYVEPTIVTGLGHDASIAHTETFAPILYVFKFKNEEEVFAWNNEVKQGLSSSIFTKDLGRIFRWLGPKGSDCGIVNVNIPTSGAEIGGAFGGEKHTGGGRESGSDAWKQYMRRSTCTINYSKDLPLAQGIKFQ
UniProt P0A6A3, sequence (whole entry, looked up): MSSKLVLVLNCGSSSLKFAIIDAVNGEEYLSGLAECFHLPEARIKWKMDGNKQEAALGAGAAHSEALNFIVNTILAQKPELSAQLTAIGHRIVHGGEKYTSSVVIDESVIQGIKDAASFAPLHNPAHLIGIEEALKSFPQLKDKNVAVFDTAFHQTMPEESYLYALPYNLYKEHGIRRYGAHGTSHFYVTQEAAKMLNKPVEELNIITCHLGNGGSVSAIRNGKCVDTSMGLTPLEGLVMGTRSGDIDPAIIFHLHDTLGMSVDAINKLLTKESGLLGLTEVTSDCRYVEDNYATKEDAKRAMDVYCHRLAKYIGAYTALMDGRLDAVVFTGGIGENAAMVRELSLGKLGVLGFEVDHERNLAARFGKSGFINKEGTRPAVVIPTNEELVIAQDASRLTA

| Molecule | substrate | pH | temperature | notes | with | kcat/Km |
| --- | --- | --- | --- | --- | --- | --- |
| ALDH7A1 (Homo sapiens, UniProt P49419) | N[C@@H](CCCC=O)C(=O)O | pH 8 | – | apparent | NAD+ 2.5 mM | 2100 ± 480 M⁻¹ s⁻¹ |
| enzyme (UniProt F0RRL2) | O=P(O)(O)O | pH 5.5 | 37 °C | apparent | – | 28600 M⁻¹ s⁻¹ |
| enzyme (UniProt A0A063Y6V3) | NC(=O)C1=CN([C@@H]2O[C@H](COP(=O)(O)OP(=O)(O)OC[C@H]3O[C@@H](n4cnc5c(N)ncnc54)[C@H](O)[C@@H]3O)[C@@H](O)[C@H]2O)C=CC1 | pH 7 | 30 °C | cofactor varied | – | 10400 M⁻¹ s⁻¹ |
| B1 (SCO6712 S292F/Y229F) | CCn1c(=NN=c2sc3cc(S(=O)(=O)O)ccc3n2CC)sc2cc(S(=O)(=O)O)ccc21 | pH 7 | 37 °C | NaCl 150 mM | O2 cosubstrate | 1900 ± 300 M⁻¹ s⁻¹ |
| B2 (enzyme L71Q/Y136L) | C=C1CC[C@@H]2C(C)(C)CCC[C@@]2(C)[C@@H]1CC/C(C)=C/COP(=O)(O)OP(=O)(O)O | – | – | – | – | 4000 M⁻¹ s⁻¹ |
| B3 (enzyme) | O=C(O)c1ccc(F)cc1O | pH 7.5 | 37 °C | apparent | – | 89.4 M⁻¹ s⁻¹ |
| B4 (enzyme S252E) | NC(=O)c1ccc[n+]([C@@H]2O[C@H](COP(=O)(O)OP(=O)(O)OC[C@H]3O[C@@H](n4cnc5c(N)ncnc54)[C@H](OP(=O)(O)O)[C@@H]3O)[C@@H](O)[C@H]2O)c1 | pH 7 | 30 °C | apparent | – | 24000 ± 2000 M⁻¹ s⁻¹ |
| enzyme (Arabidopsis thaliana, UniProt Q9C969) | O=C(O)C(=O)Cc1ccc(O)cc1 | – | – | – | – | 26800 M⁻¹ s⁻¹ and 54700 M⁻¹ s⁻¹ and 29000 M⁻¹ s⁻¹ |
| spt R378K (Sphingomonas paucimobilis) | CCCCCCCCCCCCCCCC(=O)SCCNC(=O)CCNC(=O)[C@H](O)C(C)(C)COP(=O)(O)OP(=O)(O)OC[C@H]1O[C@@H](n2cnc3c(N)ncnc32)[C@H](O)[C@@H]1OP(=O)(O)O | – | – | – | PLP | 5000 M⁻¹ s⁻¹ |
| ackA (Escherichia coli, UniProt P0A6A3) | Nc1ncnc2c1ncn2[C@@H]1O[C@H](COP(=O)(O)OP(=O)(O)OP(=O)(O)O)[C@@H](O)[C@H]1O | pH 7.6 | 25 °C | – | acetate | 1.2e+06 ± 100000 M⁻¹ s⁻¹ |
| B5 (enzyme) | C/C(=C\C=C(/O)C(=O)O)C(=O)O | pH 7.3 | 24 °C | – | – | 16000 M⁻¹ s⁻¹ |
| B6 (enzyme C424A) | Nc1ncnc2c1ncn2[C@@H]1O[C@H](COP(=O)(O)OP(=O)(O)OP(=O)(O)O)[C@@H](O)[C@H]1O | pH 8.5 | 25 °C | apparent, anoxic | L-Thr 10 mM | 20 ± 4 M⁻¹ s⁻¹ |
| B7 (acsA) | CC(C)CC(=O)O | pH 7 | – | – | – | 13.3 ± 1.67 M⁻¹ s⁻¹ |
| enzyme F30A (Homo sapiens, UniProt Q08623) | O=c1[nH]cc([C@@H]2O[C@H](COP(=O)(O)O)[C@@H](O)[C@H]2O)c(=O)[nH]1 | pH 7 | 25 °C | – | – | 167000 M⁻¹ s⁻¹ |
| B8 (enzyme) | O=C(O)[C@@H](O)[C@@H](O)[C@H](O)[C@H](O)CO | pH 8.5 | – | – | NAD | 6670 M⁻¹ s⁻¹ |
| gdh N97F (Bacillus subtilis) | NC(=O)c1ccc[n+]([C@@H]2O[C@H](COP(=O)(O)OP(=O)(O)OC[C@H]3O[C@@H](n4cnc5c(N)ncnc54)[C@H](O)[C@@H]3O)[C@@H](O)[C@H]2O)c1 | pH 8 | 55 °C | – | – | 42300 ± 1830 M⁻¹ s⁻¹ |
| B9 (nfsB) | NC(=O)N/N=C/c1ccc([N+](=O)[O-])o1 | pH 7 | 37 °C | – | NADPH 110 µM | 1.4e+06 ± 180000 M⁻¹ s⁻¹ |
| HNL C81L/E79H/G176S/H103V/K236M/N104T/T11G/V106F (Hevea brasiliensis) | CC(=O)Oc1ccc([N+](=O)[O-])cc1 | pH 7.2 | 22 °C | – | – | 2000 M⁻¹ s⁻¹ |
| B10 (enzyme I20A) | N[C@H](COP(=O)(O)O)Cc1c[nH]cn1 | pH 7.8 | 25 °C | – | – | 1520 ± 200 M⁻¹ s⁻¹ |

A few entries again:
| Molecule | substrate | pH | temperature | notes | with | kcat/Km |
| --- | --- | --- | --- | --- | --- | --- |
| ALDH7A1 (Homo sapiens, UniProt P49419) | N[C@@H](CCCC=O)C(=O)O | pH 8 | – | apparent | NAD+ 2.5 mM | 2100 ± 480 M⁻¹ s⁻¹ |
| HNL C81L/E79H/G176S/H103V/K236M/N104T/T11G/V106F (Hevea brasiliensis) | CC(=O)Oc1ccc([N+](=O)[O-])cc1 | pH 7.2 | 22 °C | – | – | 2000 M⁻¹ s⁻¹ |
